# Measured values of several laboratories.
# Compare with care: the assays were run in different laboratories. Numbers after ± are the reported error.
# Cell line: Caco-2 monolayer
Compound,assay,test system,conditions,how to read,quantity,value
CC(=O)N[C@H]1[C@H]([C@H](O)[C@H](O)CO)OC(C(=O)O)=C[C@@H]1N=C(N)N,,HBSS,"180 min, basolateral to apical",,Papp,0.045 ± 0.004 ×10⁻⁶ cm/s
Cn1nc2c(=O)n(C3CC3)ccc2c1[C@](O)(c1cnc(C(F)(F)F)c(Cl)c1)C(F)(F)F,,,,,Papp (A-B),43.8 ×10⁻⁶ cm/s
C[C@@H]1O[C@@H](OC[C@H]2O[C@@H](Oc3c(-c4ccc(O)c(O)c4)oc4cc(O)cc(O)c4c3=O)[C@H](O)[C@@H](O)[C@@H]2O)[C@H](O)[C@H](O)[C@H]1O,transwell permeability,,"100 µg/mL, apical to basolateral, HBSS, DMSO 1%, added: verapamil 0.1 mg/mL",relative to: verapamil alone,Papp increase,16.8%
Cc1cc(C)c(CNC(=O)c2cc(Cl)c3c(c2C)O[C@@](C)([C@H]2CC[C@H](N(C)C)CC2)O3)c(=O)[nH]1,,,"1 µM, added: verapamil 100 µM",,Papp apical to basolateral,4.85 ×10⁻⁶ cm/s
O=c1cc(-c2ccc(O)cc2)oc2c([C@@H]3O[C@H](CO)[C@@H](O)[C@H](O)[C@H]3O)c(O)cc(O)c12,transwell permeability,,"100 µg/mL, apical to basolateral, HBSS, DMSO 1%, added: SDS 10 mg/mL",relative to: SDS alone,Papp increase,8.86%
CCn1cc(C2CC2)c2c(Cc3ccc(C(F)(F)F)nc3)n(C)nc2c1=O,,,,,Papp (B-A),51.3 ×10⁻⁶ cm/s
O=C(CS)NCCCCCC(=O)Nc1cccc2cccnc12,,,added: cyclosporin A 4 µM,relative to: Papp B-A over Papp A-B,efflux ratio,1.03
O=c1c(O[C@@H]2O[C@H](CO)[C@H](O)[C@H](O)[C@H]2O)c(-c2ccc(O)c(O)c2)oc2cc(O)cc(O)c12,transwell permeability,,"100 µg/mL, apical to basolateral, HBSS, DMSO 1%, added: digoxin 5 ng/mL",relative to: digoxin alone,Papp increase,14.9%
Cn1nc2c(=O)n(C3CC3)cnc2c1[C@](O)(c1cnc(C(F)(F)F)c(Cl)c1)C(F)(F)F,,,,,Papp (A-B),64.4 ×10⁻⁶ cm/s

# Some of these lines once more:
Compound,assay,test system,conditions,how to read,quantity,value
O=c1cc(-c2ccc(O)cc2)oc2c([C@@H]3O[C@H](CO)[C@@H](O)[C@H](O)[C@H]3O)c(O)cc(O)c12,transwell permeability,,"100 µg/mL, apical to basolateral, HBSS, DMSO 1%, added: SDS 10 mg/mL",relative to: SDS alone,Papp increase,8.86%
